Measurements of several laboratories.
Numbered parts are unrelated; each lists some results of a single study. Substitutions count along the parent as printed.

Set 1 — method: DHFR PCA, deep sequencing; medium: yeast; added: (+)-ABA 0.11 µM; reference: wild-type fitted maximum; reading: higher = stronger binding
Target: ABI1, truncated, D143A, DHFR fusion (Arabidopsis thaliana)
Notes: methotrexate growth selection, single substitutions
Parent: PYL1, truncated, DHFR fusion (Arabidopsis thaliana); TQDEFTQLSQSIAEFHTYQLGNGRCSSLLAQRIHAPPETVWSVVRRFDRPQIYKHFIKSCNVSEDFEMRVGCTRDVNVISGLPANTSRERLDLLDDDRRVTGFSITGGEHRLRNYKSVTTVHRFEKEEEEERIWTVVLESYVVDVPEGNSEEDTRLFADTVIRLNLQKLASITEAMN; partner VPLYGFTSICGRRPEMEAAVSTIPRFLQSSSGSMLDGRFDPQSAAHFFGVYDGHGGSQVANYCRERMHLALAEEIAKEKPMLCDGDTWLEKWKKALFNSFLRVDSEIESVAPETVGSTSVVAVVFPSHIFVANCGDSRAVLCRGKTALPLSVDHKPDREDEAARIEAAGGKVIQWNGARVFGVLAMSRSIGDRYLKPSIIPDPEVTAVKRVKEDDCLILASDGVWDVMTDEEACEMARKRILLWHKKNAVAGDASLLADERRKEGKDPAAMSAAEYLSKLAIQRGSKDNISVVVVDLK
Under “relative binding score”, `S26H` is recorded as 19.9%.
`Q2E`: “relative binding score” 41.1%.
For `Q51P`, “relative binding score” read -1.55%.
For `G23E`, “relative binding score” read 4.36%.
Under “relative binding score”, `T1L` is recorded as 35.9%.
For `P36Y`, “relative binding score” read 5.26%.
Under “relative binding score”, `D159C` is recorded as -7.89%.
For `D75Y`, “relative binding score” read 34.1%.
`R111Y`: “relative binding score” 2.26%.
`G71K`: “relative binding score” -6.74%.
Under “relative binding score”, `N85V` is recorded as 65.6%.
`G148Y` — result for “relative binding score”: -6.35%.
`P37Q`: “relative binding score” 9.45%.
`I52K` — result for “relative binding score”: 25.6%.
For `T106M`, “relative binding score” read 38.2%.
For `L166I`, “relative binding score” read -1.37%.
`I33Q`: “relative binding score” -2.98%.
For `C72V`, “relative binding score” read 37.3%.

Set 2 — target: CCNB2, cyclin fold, Cln2 fusion (human); method: yeast growth competition, sequencing; medium: yeast; notes: weak parent motif; reference: not given; reading: higher = stronger binding
Parent: EXO1 docking peptide (human); KPECGRVQRAIFQ; partner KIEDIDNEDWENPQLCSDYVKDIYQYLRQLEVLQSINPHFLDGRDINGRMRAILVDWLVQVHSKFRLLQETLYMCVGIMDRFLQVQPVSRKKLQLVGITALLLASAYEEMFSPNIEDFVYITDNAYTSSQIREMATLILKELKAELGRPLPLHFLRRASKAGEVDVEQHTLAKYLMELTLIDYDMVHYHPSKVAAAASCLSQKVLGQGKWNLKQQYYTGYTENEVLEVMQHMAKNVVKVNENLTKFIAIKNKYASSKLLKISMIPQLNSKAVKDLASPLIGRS
Under “normalised enrichment score”, `R9A` is recorded as 0.127.
For `V7A`, “normalised enrichment score” read 0.271.
For `P2A`, “normalised enrichment score” read 0.286.
Under “normalised enrichment score”, `K1A` is recorded as -0.321.
For `G5A`, “normalised enrichment score” read -0.00691.
`E3A` — result for “normalised enrichment score”: 0.192.

Set 3 — method: protein binding microarray; form: double-stranded DNA, one strand shown; medium: in vitro; tested at: not given; reference: not given; reading: higher = stronger binding
Target: Histone acetyltransferase KAT6A, winged helix 2, GST fusion (KAT6A, Homo sapiens, UniProt Q92794, residues 85-181)
Notes: 8-mer, flanks averaged, mean of 2 arrays, mostly near background
Residues (chain): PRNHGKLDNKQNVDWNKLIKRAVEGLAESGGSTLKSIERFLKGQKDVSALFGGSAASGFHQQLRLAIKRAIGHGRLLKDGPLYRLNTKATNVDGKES
For `CCGCCTTC`, the E-score was 0.0913.
For `CGTCAGCC`, the E-score was 0.0375.
`CCAATTAC` has an E-score of -0.0967.
For `GGATCGCC`, the E-score was 0.00637.
The E-score of `AAGCAAAG` is reported as -0.0514.
With `ACATCTAC` the E-score was -0.127.
`ACGGGCAA` gave an E-score of 0.0563.
For `GGATCGGA`, the E-score was -0.0511.
`CACACAGA` has an E-score of 0.14.
The E-score of `AACTCAAG` is reported as -0.0338.
With `CCAAGTCG` the E-score was 0.0615.
For `GTCCCCCA`, the E-score was -0.0792.
`AGGACTGA` gave an E-score of -0.17.
`GAGGTACC` gave an E-score of 0.0782.
For `GAACAACA`, the E-score was 0.0233.
The E-score of `GGCGCCGA` is reported as 0.184.
With `TCGCACAA` the E-score was 0.0324.
`AAGGACGT` gave an E-score of -0.113.
`AACTCATT` has an E-score of -0.149.
With `AACATTAC` the E-score was -0.18.
`ATAAGAAG` has an E-score of 0.106.
For `ATCTGAGA`, the E-score was 0.0554.
With `CCTGGTTA` the E-score was -0.0319.
The E-score of `AGGAGTGG` is reported as -0.0819.
For `CAACACTG`, the E-score was -0.0559.

Set 4 — method: universal PBM; form: double-stranded DNA, one strand shown; medium: in vitro; tested at: 600 nM; reading: higher = stronger binding
Target: Sal-like protein 4, full length isoform A (SALL4, Homo sapiens, UniProt Q9UJQ4, residues 1-1053)
Chain of UniProt Q9UJQ4 (whole entry, looked up): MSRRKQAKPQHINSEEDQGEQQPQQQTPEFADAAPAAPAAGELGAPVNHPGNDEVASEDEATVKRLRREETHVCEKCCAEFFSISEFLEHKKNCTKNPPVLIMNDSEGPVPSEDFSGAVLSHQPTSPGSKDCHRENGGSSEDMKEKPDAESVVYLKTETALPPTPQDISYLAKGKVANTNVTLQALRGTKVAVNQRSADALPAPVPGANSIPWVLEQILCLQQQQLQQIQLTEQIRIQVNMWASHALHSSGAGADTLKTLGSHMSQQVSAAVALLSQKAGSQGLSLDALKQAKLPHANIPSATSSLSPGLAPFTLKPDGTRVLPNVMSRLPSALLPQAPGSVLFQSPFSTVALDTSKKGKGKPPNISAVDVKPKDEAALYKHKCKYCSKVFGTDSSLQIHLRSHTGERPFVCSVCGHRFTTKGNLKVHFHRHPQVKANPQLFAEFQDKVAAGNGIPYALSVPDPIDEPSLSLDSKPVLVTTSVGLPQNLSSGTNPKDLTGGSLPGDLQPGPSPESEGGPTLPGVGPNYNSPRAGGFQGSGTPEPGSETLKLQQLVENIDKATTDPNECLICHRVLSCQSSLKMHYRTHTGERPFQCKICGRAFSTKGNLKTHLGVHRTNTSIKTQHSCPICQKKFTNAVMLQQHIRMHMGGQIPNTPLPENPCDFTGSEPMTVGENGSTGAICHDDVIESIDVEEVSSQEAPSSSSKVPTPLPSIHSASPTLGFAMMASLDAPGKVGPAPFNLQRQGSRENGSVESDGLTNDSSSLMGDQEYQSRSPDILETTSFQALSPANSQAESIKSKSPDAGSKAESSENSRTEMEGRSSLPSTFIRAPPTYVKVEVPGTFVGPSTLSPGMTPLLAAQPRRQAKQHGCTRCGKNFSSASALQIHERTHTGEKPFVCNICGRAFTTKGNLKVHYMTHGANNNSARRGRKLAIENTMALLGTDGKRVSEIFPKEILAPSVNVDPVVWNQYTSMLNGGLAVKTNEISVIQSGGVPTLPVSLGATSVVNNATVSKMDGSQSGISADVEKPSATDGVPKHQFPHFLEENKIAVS
Notes: 8-mer, flanks averaged, mean of replicates
`GAGTATCC` has an E-score of -0.207.
With `ACAATTGG` the E-score was -0.0749.
The E-score of `TGGTCAAA` is reported as 0.11.
With `CATCGGGG` the E-score was -0.205.
`ACAGCATA` gave an E-score of 0.265.
`CAGATCGG` has an E-score of -0.163.
With `CGGGTGTA` the E-score was -0.154.
With `AAAGGGAC` the E-score was -0.135.
`CGCCTCCA` has an E-score of -0.0647.
`AATCACCG` gave an E-score of 0.00628.
With `AAGGGCAG` the E-score was -0.232.
With `AGCGCTAG` the E-score was -0.208.
With `GCTGTCCA` the E-score was -0.0717.
`CGTCGTGC` has an E-score of -0.101.
With `GCATCCAA` the E-score was -0.213.
The E-score of `CCTTCAAG` is reported as 0.0655.
`CCTAAGCA` gave an E-score of -0.104.
`CTGCACAA` gave an E-score of 0.00681.
For `ATCCCGTA`, the E-score was -0.0598.

Set 5 — method: protein-binding microarray; form: double-stranded DNA, one strand shown; medium: in vitro; tested at: not given; reading: higher = stronger binding
Target: Protein C-ets-1 (ETS1, Homo sapiens, UniProt P14921, residues 1-441, full length assumed)
Notes: k-mer, scored over probes, only values ≥0.25
Target sequence (chain): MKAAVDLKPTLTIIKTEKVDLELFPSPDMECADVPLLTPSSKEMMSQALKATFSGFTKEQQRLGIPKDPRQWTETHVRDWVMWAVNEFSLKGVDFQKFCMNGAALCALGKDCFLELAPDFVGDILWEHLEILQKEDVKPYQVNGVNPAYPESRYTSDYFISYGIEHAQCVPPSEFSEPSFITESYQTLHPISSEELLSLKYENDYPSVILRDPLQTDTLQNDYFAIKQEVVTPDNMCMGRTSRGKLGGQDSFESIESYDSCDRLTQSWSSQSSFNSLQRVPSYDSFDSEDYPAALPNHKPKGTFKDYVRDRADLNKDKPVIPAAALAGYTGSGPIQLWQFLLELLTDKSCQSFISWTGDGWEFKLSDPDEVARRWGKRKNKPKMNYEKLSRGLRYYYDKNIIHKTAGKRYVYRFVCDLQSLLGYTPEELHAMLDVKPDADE
`GAACGTCC` gave an E-score of 0.306.
`ATGTGGAA` gave an E-score of 0.258.
The E-score of `ATATCCTC` is reported as 0.338.
`CCGGATTA` has an E-score of 0.322.
The E-score of `CGGATACG` is reported as 0.447.
With `ATCCGCAT` the E-score was 0.351.
For `CATGTCCG`, the E-score was 0.397.
The E-score of `CCGTTTCC` is reported as 0.443.
`AATTTCCT` gave an E-score of 0.457.
`ATGCGGAA` gave an E-score of 0.434.
The E-score of `GGAAGGTA` is reported as 0.316.
For `GGAAATGA`, the E-score was 0.44.
`CCGGTAGG` has an E-score of 0.255.
`ATCCTGTG` has an E-score of 0.396.
With `CCGGTTAC` the E-score was 0.327.
With `GTCAGGAA` the E-score was 0.385.
`GAACTTCC` has an E-score of 0.471.
`GGGATGCA` gave an E-score of 0.25.
`TGTAGGAA` gave an E-score of 0.256.
For `GCTGGAAA`, the E-score was 0.319.
`ACCGACAG` has an E-score of 0.26.
With `GACAGGAA` the E-score was 0.468.
`CCGGTCCG` gave an E-score of 0.379.
`GCACGTCC` gave an E-score of 0.297.
The E-score of `ACGTCCTG` is reported as 0.401.

Further values, each from its own experiment
The fold induction of `PhoQ, residues 284 288 289 292 302 303 TTCLQL` is reported as 4.47 (PhoP, residues 12 14 15 18 19 SQCLL (Escherichia coli, UniProt P23836); Sort-seq, measured: YFP reporter; E. coli; PhoQ-PhoP variant library, added: 10 µM Mg2+; reference: high Mg2+ state, higher = stronger signaling).
